{"data": "Measured values collected from several papers", "target": "Cytochrome P450 3A4 (CYP3A4, Homo sapiens, UniProt P08684)", "note": "± gives the spread as reported.", "UniProt P08684, sequence (whole entry, looked up)": "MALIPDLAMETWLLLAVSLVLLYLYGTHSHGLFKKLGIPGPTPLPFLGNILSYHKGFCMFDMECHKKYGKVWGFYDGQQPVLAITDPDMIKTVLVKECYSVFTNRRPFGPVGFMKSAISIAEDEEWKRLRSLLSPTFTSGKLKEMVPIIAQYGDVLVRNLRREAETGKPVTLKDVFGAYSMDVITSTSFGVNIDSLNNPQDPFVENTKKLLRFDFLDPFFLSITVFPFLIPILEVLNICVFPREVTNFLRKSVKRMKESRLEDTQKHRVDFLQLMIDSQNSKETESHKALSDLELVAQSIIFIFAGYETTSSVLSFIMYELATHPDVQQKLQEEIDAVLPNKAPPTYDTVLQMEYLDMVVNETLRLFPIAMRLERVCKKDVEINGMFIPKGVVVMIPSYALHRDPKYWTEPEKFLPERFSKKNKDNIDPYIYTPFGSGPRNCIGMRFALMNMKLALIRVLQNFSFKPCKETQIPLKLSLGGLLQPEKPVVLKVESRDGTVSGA"}
{"Compound": "CCOC(=O)[C@@]12C[C@@H]1[C@@H](n1ccc3c(NC)nc(C#Cc4ccc(Cl)s4)nc31)[C@H](O)[C@@H]2O", "assay": "enzyme activity, inhibitor", "system": "human liver microsomes", "setting": "10 min, pH 7.4, with: midazolam", "endpoint": "IC50", "result": "10.7 µM"}
{"Compound": "O=C(NCCN1CCCC1)c1cc(-c2ccc(CN3CCOCC3)cc2)nc2ccc(F)cc12", "assay": "inhibitor", "system": "pooled human liver microsomes", "setting": "metabolism-dependent inhibition, with: midazolam", "endpoint": "IC50", "result": "> 100 µM"}
{"Compound": "C=C(F)C(=O)N1CCN(c2nc(OC[C@@H]3CCCN3C)nc3c2CCN(c2cccc4cccc(Cl)c24)C3)C[C@@H]1CC#N", "assay": "enzyme activity, competitive inhibitor", "system": "human liver microsomes", "endpoint": "Ki", "result": "8.2 µM"}
{"Compound": "O=C(O)/C=C/c1ccccc1", "assay": "enzyme activity, inhibitor", "endpoint": "IC50", "result": "> 337 µM"}
{"Compound": "NC/C(=C\\F)COc1cccc(Cn2c(=S)[nH]c(=O)c3[nH]cnc32)c1", "assay": "enzyme activity, inhibitor", "setting": "CYP3A4 screen", "endpoint": "IC50", "result": "> 10 µM"}
{"Compound": "OCc1ccc(-c2nn(Cc3ccccc3)c3ccccc23)o1", "assay": "enzyme activity, time-dependent inhibitor", "system": "pooled human liver microsomes", "setting": "0 min, preincubation with NADH, with: testosterone", "endpoint": "IC50", "result": "22.2 µM"}
{"Compound": "N#C[C@H](C[C@@H]1CCCNC1=O)NC(=O)[C@H](CC1CC1)NC(=O)c1cc2cccc(Cl)c2[nH]1", "assay": "enzyme activity, time-dependent inhibitor", "system": "human liver microsomes", "setting": "30 min NADPH preincubation, with: midazolam 1'-hydroxylation", "endpoint": "IC50", "result": "6.56 µM"}
{"Compound": "COc1cc2c(c(OC)c1OC)-c1c(cc3c(c1OC)OCO3)C[C@H](C)[C@](C)(O)[C@H]2OC(=O)c1ccccc1", "assay": "testosterone 6β-hydroxylation, inhibitor, recombinant enzyme", "setting": "15 min, pH 7.4, with: testosterone 50 µM", "endpoint": "IC50", "result": "0.13 ± 0.04 µM"}
{"Compound": "Cc1cc(O[C@@H]2CCOC2)cc(C(=O)Nc2ccc(F)cn2)n1", "assay": "inhibitor", "endpoint": "IC50", "result": "> 30 µM"}
{"Compound": "COc1cc2c(c(OC)c1OC)-c1c(cc3c(c1OC)OCO3)[C@H](OC(=O)c1ccccc1)[C@@](C)(O)[C@@H](C)C2", "assay": "testosterone 6β-hydroxylation, inhibitor, recombinant enzyme", "setting": "15 min, pH 7.4, with: testosterone 50 µM", "endpoint": "IC50", "result": "0.096 ± 0.02 µM"}
{"Compound": "CCOc1cc(-c2nncn2C)ccc1Nc1ncc2cc(C)nc(NCC(C)(C)C)c2n1", "assay": "inhibitor", "system": "human liver microsomes", "setting": "with: midazolam substrate", "endpoint": "IC50", "result": "> 50 µM"}
{"note": "For quick reference, copied from above:"}
{"Compound": "NC/C(=C\\F)COc1cccc(Cn2c(=S)[nH]c(=O)c3[nH]cnc32)c1", "assay": "enzyme activity, inhibitor", "setting": "CYP3A4 screen", "endpoint": "IC50", "result": "> 10 µM"}
{"Compound": "OCc1ccc(-c2nn(Cc3ccccc3)c3ccccc23)o1", "assay": "enzyme activity, time-dependent inhibitor", "system": "pooled human liver microsomes", "setting": "0 min, preincubation with NADH, with: testosterone", "endpoint": "IC50", "result": "22.2 µM"}
